Experimental data of several laboratories.
Lines come from different studies, so protocols differ. “And” joins repeats or separate records; there may be more than shown. Numbers after ± are the reported error.

CC#CC(=O)N1CCC[C@H]1c1nc(-c2ccc(C(=O)Nc3ccccn3)cc2)c2c(N)nccn12
IC50 (washed human platelets, healthy donors; ATP secretion, inhibitor, luminescence; with: CRP 10 µg/mL): 6.37 µM

Cn1cc(-c2ccc(-c3cncc(Cl)c3N3CCC4(CCNC4=O)CC3)cc2)cn1
log2 fold change (COLO 205; gene expression, microarray, refers to: ELF3 mRNA; concentration not given, 6 h; baseline: untreated cells): 1.93

CC(=O)OC[C@H]1O[C@@H]([S-])[C@H](OC(C)=O)[C@@H](OC(C)=O)[C@@H]1OC(C)=O.CCP(CC)CC.[Au+]
IC50 (NCI-H661 HMOX1-GFP low; cell viability, MTT; 48 h): 0.58 µM

CC#Cc1cncc(-c2ccc3c(c2)[C@@]2(N=C(C)C(N)=N2)[C@]2(CC[C@H](OC)CC2)C3)c1
IC50 (N2a; Aβ40 production): 0.00029 µM

N#Cc1ccc(C[C@H](Nc2c(Nc3ccc(F)cc3)c(=O)c2=O)C(=O)N2CCc3ccccc32)cc1
IC50 (human neutrophils; calcium mobilization, desensitization; with: standard agonist): 1.3 ± 0.4 µM

COc1cc(O)cc(/C=C/c2cccc(O)c2OC)c1
IC50 (MDA-MB-231 breast cancer; cell viability, MTT; DMEM with 10% FBS; 48 h): > 200 µM

O=C(O)c1ccccc1Nc1cccc(C(F)(F)F)c1
IC50 (HEK293A LATS1/2 double knockout; TEAD reporter gene, GTIIC luciferase; 24 h): 258 µM

CCCS(=O)(=O)Nc1ccc(F)c(C(=O)c2c[nH]c3ncc(-c4ccc(Cl)cc4)cc23)c1F
IC50 (primary keratinocytes; ERK phosphorylation, Western blot; 1 h): > 30 µM

C[C@@H]1CN(C(=O)c2ccc(NC(=O)c3cc(O[C@H](C)c4c(Cl)ccc(F)c4Cl)c(N)nn3)cc2)C[C@H](C)N1
IC50 (Ba/F3 EML4-ALK variant 1 S1206Y; cell viability): 0.0294 µM

N#Cc1ccc(C[C@H](Nc2nnc(-c3cccc(F)c3)s2)C(=O)N2CCc3ccccc32)cc1
IC50 (human neutrophils; calcium mobilization, desensitization; with: standard agonist): > 50 µM

CC1(C)COc2ccc(F)cc2CN2c3nc4c(cnn4cc3OC[C@H]2C(F)F)C(=O)N1
IC50 (Ba/F3 EML4-ALK v1; cell viability): 0.0524 µM

NS(=O)(=O)C#Cc1ccccc1
EC50 (Toxoplasma gondii; parasite growth, luciferase reporter; HFF, tachyzoite; 72 h): 228 µM

Cc1c(C(=O)O)ccc2c3n(nc12)[C@@H]1[C@H](C3)N(CC2CC2)[C@@]2(C(=O)Nc3cc(Cl)ccc32)[C@H]1c1cccc(Cl)c1F
IC50 (MDM2-amplified TP53 wild-type cell lines; cell viability; range across cell lines): 0.005 to 0.24 µM

O=c1c(O)c(-c2ccc(O)c(O)c2)oc2cc(O)cc(O)c12
IC50 (SV-HUC-1; cell growth, CellTiter-Glo; 72 h): 81.2 µM

CN(C)c1ccc2cc(C(=O)NS(=O)(=O)c3ccccc3-c3ccccc3)oc2c1
IC50 (JIMT-1; cell proliferation; 144 h): > 20 µM

N#Cc1ccc(C[C@H](Nc2ncc(-c3ccc(F)cc3)o2)C(=O)N2CCc3ccccc32)cc1
IC50 (human neutrophils; calcium mobilization, desensitization; with: standard agonist): > 50 µM

COc1cc2c(cc1OC)-c1cc3ccc(OC)c(OCCN)c3c[n+]1CC2
IC50 (Lewis lung carcinoma; cell viability, MTT; 72 h): > 80 µM

Cc1cc(Nc2ncc(Cl)c(Nc3ccccc3S(=O)(=O)C(C)C)n2)c(OC(C)C)cc1C1CCNCC1
IC50 (Ba/F3 EML4-ALK v1; cell viability): 0.267 µM

N#Cc1ccc(C[C@@H](Nc2nnc(-c3ccc(Br)cc3)o2)C(=O)N2CCc3ccccc32)cc1
IC50 (human neutrophils; calcium mobilization, desensitization; with: standard agonist): > 50 µM

COc1ccc(F)cc1C(=O)NCc1ccc(-c2nn([C@@H](C)C(F)(F)F)c(N)c2C(N)=O)cc1
IC50 (Rec1; refers to: EGF; 24 h): > 0.1 µM

CC(=O)O[C@H]1C(=O)[C@@]2(C)[C@H]([C@H](OC(=O)c3ccccc3)[C@]3(O)C[C@H](OC(=O)[C@H](O)[C@@H](NC(=O)c4ccccc4)c4ccccc4)C(C)=C1C3(C)C)[C@]1(OC(C)=O)CO[C@@H]1C[C@@H]2O
IC50 (CHP-212 parental; cell viability, SRB; mean of 3 runs): 0.0351 µM

COc1cc(/C=C/C(=O)N2CCC=CC2=O)cc(OC)c1OC
EC50 (Toxoplasma gondii; parasite growth; HFF, bradyzoite, alkaline-induced): 6.71 µM

O=c1c(O[C@@H]2O[C@H](CO)[C@@H](O)[C@H](O)[C@H]2O)c(-c2ccc(O)cc2)oc2cc(O)cc(O)c12
IC50 (T47D breast cancer; cell viability, MTT; DMEM with 10% FBS; 48 h): > 200 µM

CCCCCN1C[C@H](O)[C@@H](O)[C@H](O)[C@@H]1CO
IC50 (Sandhoff fibroblasts; lysosomal accumulation, LysoTracker staining; 8 days): 0.7 µM

COc1ncnc(C2CC2)c1-c1ncc2cnn(Cc3ccc(-c4nc(C(F)(F)F)cn4C(C)C)cc3)c2n1
IC50 (CHP-212 parental; cell viability, SRB): 39.1 µM and 38.5 µM and 50.2 µM

CCC(=O)N1CCC(COCC(=O)N2CCN(c3nc(-c4cnc(N)nc4C(F)F)nc(N4CCOC[C@@H]4C)n3)CC2)CC1
IC50 (MDA-MB-453; western blot, refers to: phospho-S6 Ser235/Ser236; 2 h): 0.607 µM

C=CC(=O)N1CCC[C@@H](n2nc(-c3ccc(Oc4ccccc4)cc3)c3c(N)ncnc32)C1
IC50 (human platelets, healthy donors; calcium mobilisation, inhibitor, Fura-2 fluorescence; with: CRP 10 µg/mL): 1.88 µM

NC(=O)NOCCCCCCCCCCCCCC[P+](c1ccccc1)(c1ccccc1)c1ccccc1
IC50 (mouse myeloid-derived suppressor cells; suppressive neutrophil differentiation, flow cytometry): 0.94 ± 0.99 µM

CNc1ncc2cc(-c3cc(NC(=O)NCCC(C)(C)C)c(F)cc3C)c(C)nc2n1
IC50 (primary keratinocytes; ERK phosphorylation, Western blot; 1 h): 2.14 µM

Cc1ccc(-c2nnc(N[C@@H](Cc3ccc(C#N)cc3)C(=O)N3CCc4ccccc43)o2)cc1
IC50 (human neutrophils; calcium mobilization, desensitization; with: standard agonist): > 50 µM

O=C(O)c1cccnc1Nc1cccc(C(F)(F)F)c1
IC50 (HEK293A LATS1/2 double knockout; TEAD reporter gene, GTIIC luciferase; 24 h): 145 µM

CC(C)C[C@H](NC(=O)[C@H](Cc1ccccc1)NC(=O)c1cnccn1)B(O)O
IC50 (CHP-212 parental; cell viability, SRB; mean of 3 runs): 5.26 µM

COc1cc2nccc(Oc3ccc(NC(=O)C4(C(=O)Nc5ccc(F)cc5)CC4)cc3)c2cc1OC
IC50 (Rh36 (embryonal rhabdomyosarcoma); cell growth; 3 days): 4.62 ± 0.84 µM

N#Cc1ccc(C[C@H](Nc2nnc(-c3cccc(F)c3)o2)C(=O)N2CCc3ccccc32)cc1
IC50 (human neutrophils; calcium mobilization, desensitization; with: standard agonist): > 50 µM

C[C@H]1Oc2cc(cnc2N)-c2c(nn(C)c2C#N)CN(C)C(=O)c2ccc(F)cc21
IC50 (Ba/F3 EML4-ALK variant 1 S1206Y; cell viability): 0.0022 µM

CCCCN1C[C@H](O)[C@@H](O)[C@@H](O)[C@H]1CO
IC50 (sample BC patient fibroblasts; Gb3 level lowering, LC-MS/MS, refers to: Gb3 d18:1/20:0; 216 h): 25.5 µM

CC(C)C(=O)Nc1ccc([N+](=O)[O-])c(C(F)(F)F)c1
IC50 (7702 normal human cells; cell growth, CCK-8; 48 h): > 50 µM

NC(=O)NOCCCCCCCCCCCCCCCC[P+](c1ccccc1)(c1ccccc1)c1ccccc1
IC50 (mouse myeloid-derived suppressor cells; suppressive neutrophil differentiation, flow cytometry): 0.56 ± 0.12 µM

N#Cc1ccc(C[C@H](NC(=O)c2cc3ccccc3[nH]2)C(=O)N2CCc3ccccc32)cc1
IC50 (human neutrophils; calcium mobilization, desensitization; with: standard agonist): > 50 µM

C=CC(=O)N1CCC(COCC(=O)N2CCN(c3nc(-c4cnc(N)nc4C(F)F)nc(N4CCOC[C@@H]4C)n3)CC2)CC1
IC50 (MDA-MB-453; western blot, refers to: phospho-PKB/Akt Ser473; 2 h): 0.0092 µM

N#Cc1ccc(C[C@@H](Nc2nnc(-c3ccc(F)cc3)o2)C(=O)N2CCc3ccccc32)cc1
IC50 (human neutrophils; calcium mobilization, desensitization; with: standard agonist): > 50 µM

COc1cc2c(Oc3ccc(NC(=O)C4(C(=O)Nc5ccc(F)cc5)CC4)cc3F)ccnc2cc1OCCCN1CCOCC1
IC50 (Rh36 (embryonal rhabdomyosarcoma); cell growth; 3 days): 0.66 ± 0.09 µM

O=C(O)c1ccc(O)cc1
IC50 (MDA-MB-231 breast cancer; cell viability, MTT; DMEM with 10% FBS; 48 h): > 200 µM

CC[C@@]1([C@@H]2O[C@@H]([C@H]3O[C@@](O)(CO)[C@H](C)C[C@@H]3C)C[C@@H]2C)CC[C@H]([C@]2(C)CC[C@]3(C[C@H](O)[C@@H](C)[C@@H]([C@@H](C)[C@@H](OC)[C@H](C)C(=O)O)O3)O2)O1
IC50 (MCF-10A; cell viability; 72 h): 0.221 ± 0.102 µM

CC(C)(C)c1nc(-c2cccc(NS(=O)(=O)c3c(F)cccc3F)c2F)c(-c2ccnc(N)n2)s1
IC50 (primary keratinocytes; ERK phosphorylation, Western blot; 1 h): 21 µM

COc1cc(N2CCC(N3CCN(C)CC3)CC2)ccc1Nc1ncc(Cl)c(Nc2ccccc2P(C)(C)=O)n1
IC50 (Ba/F3 EML4-ALK variant 1 S1206Y; cell viability): 0.0887 µM

Some of these lines once more:
O=C(O)c1ccccc1Nc1cccc(C(F)(F)F)c1
IC50 (HEK293A LATS1/2 double knockout; TEAD reporter gene, GTIIC luciferase; 24 h): 258 µM

CC1(C)COc2ccc(F)cc2CN2c3nc4c(cnn4cc3OC[C@H]2C(F)F)C(=O)N1
IC50 (Ba/F3 EML4-ALK v1; cell viability): 0.0524 µM

O=c1c(O[C@@H]2O[C@H](CO)[C@@H](O)[C@H](O)[C@H]2O)c(-c2ccc(O)cc2)oc2cc(O)cc(O)c12
IC50 (T47D breast cancer; cell viability, MTT; DMEM with 10% FBS; 48 h): > 200 µM

CC#CC(=O)N1CCC[C@H]1c1nc(-c2ccc(C(=O)Nc3ccccn3)cc2)c2c(N)nccn12
IC50 (washed human platelets, healthy donors; ATP secretion, inhibitor, luminescence; with: CRP 10 µg/mL): 6.37 µM
